Measurements from different studies.
Lines come from different studies, so protocols differ. Several values in a cell are separate wells, animals, samples, runs or records. ± gives the spread as reported.
CASP10: Caspase-10 (CASP10, Homo sapiens, UniProt Q92851)
UniProt Q92851, sequence (whole entry, looked up): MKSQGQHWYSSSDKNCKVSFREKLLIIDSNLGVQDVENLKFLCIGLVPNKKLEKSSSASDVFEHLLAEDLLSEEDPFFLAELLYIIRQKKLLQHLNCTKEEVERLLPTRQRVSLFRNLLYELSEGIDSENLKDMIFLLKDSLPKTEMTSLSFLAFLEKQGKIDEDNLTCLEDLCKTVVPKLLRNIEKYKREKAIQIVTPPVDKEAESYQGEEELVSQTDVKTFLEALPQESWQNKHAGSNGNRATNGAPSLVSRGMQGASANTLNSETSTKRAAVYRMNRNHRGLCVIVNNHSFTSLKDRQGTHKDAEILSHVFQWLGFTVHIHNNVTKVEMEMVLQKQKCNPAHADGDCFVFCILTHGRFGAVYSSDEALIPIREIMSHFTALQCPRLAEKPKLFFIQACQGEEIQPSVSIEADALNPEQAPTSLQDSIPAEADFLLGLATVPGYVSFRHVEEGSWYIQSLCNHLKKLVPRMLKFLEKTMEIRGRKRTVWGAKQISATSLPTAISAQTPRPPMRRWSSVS
DCPS: m7GpppX diphosphatase (DCPS, Homo sapiens, UniProt Q96C86)
UniProt Q96C86, sequence (whole entry, looked up): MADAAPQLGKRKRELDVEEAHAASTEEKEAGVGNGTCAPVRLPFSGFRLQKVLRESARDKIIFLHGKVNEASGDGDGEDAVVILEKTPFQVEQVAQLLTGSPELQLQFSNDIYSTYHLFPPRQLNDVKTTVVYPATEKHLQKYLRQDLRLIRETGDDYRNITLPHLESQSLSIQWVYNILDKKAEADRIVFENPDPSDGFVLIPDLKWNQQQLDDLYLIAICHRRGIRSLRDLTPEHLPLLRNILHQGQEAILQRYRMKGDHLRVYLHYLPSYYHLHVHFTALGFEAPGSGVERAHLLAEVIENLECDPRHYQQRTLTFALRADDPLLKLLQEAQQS
MAPT PHF6* peptide: Microtubule-associated protein tau, PHF6* peptide (MAPT, Homo sapiens, UniProt P10636)
HSD3B1: 3 beta-hydroxysteroid dehydrogenase/Delta 5-->4-isomerase type 1 (HSD3B1, Homo sapiens, UniProt P14060)
UniProt P14060, sequence (whole entry, looked up): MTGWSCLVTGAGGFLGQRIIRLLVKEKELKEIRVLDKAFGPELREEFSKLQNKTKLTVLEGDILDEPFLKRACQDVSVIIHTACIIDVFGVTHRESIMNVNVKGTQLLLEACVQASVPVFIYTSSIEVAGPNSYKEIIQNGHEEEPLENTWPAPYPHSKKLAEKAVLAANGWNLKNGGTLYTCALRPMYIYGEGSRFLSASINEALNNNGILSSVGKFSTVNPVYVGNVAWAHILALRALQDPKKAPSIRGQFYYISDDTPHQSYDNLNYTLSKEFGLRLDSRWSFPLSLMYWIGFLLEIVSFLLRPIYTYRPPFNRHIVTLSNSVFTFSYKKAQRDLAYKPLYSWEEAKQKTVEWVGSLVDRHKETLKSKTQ
CASP8: Caspase-8 (CASP8, Homo sapiens, UniProt Q14790)
UniProt Q14790, sequence (whole entry, looked up): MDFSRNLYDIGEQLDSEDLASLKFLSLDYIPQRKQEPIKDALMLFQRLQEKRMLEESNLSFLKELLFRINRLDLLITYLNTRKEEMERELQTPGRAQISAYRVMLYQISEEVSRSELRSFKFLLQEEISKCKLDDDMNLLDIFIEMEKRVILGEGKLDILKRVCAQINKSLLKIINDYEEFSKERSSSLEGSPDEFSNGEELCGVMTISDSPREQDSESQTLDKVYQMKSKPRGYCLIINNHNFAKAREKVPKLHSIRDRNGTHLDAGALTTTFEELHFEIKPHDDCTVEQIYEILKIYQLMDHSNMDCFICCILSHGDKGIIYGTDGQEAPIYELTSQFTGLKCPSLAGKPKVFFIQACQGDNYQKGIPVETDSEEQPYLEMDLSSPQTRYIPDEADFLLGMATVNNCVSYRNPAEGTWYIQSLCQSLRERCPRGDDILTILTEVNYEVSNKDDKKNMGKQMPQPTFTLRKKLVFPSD
MAPK8: Mitogen-activated protein kinase 8 (MAPK8, Homo sapiens, UniProt P45983)
UniProt Q92633, sequence (whole entry, unmodified, looked up): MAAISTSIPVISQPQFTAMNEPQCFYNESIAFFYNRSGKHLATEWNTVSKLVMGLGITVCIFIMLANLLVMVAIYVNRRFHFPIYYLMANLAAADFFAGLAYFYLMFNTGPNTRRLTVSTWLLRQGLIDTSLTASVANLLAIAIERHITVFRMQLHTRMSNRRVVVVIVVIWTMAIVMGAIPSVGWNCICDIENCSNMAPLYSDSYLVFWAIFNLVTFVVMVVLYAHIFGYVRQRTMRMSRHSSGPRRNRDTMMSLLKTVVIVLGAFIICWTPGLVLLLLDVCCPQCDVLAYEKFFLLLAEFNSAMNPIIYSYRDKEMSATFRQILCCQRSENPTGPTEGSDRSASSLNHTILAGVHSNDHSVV
UniProt P46089, sequence (whole entry, looked up): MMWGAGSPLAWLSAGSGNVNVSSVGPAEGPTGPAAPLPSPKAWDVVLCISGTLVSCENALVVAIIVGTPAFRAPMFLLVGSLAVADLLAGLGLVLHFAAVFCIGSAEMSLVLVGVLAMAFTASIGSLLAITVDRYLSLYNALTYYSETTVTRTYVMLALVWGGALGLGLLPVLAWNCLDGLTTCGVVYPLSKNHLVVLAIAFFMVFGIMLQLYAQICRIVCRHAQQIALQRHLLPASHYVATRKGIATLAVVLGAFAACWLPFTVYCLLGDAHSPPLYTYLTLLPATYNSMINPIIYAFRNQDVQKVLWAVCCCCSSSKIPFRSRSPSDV
UniProt P45983, sequence (whole entry, looked up): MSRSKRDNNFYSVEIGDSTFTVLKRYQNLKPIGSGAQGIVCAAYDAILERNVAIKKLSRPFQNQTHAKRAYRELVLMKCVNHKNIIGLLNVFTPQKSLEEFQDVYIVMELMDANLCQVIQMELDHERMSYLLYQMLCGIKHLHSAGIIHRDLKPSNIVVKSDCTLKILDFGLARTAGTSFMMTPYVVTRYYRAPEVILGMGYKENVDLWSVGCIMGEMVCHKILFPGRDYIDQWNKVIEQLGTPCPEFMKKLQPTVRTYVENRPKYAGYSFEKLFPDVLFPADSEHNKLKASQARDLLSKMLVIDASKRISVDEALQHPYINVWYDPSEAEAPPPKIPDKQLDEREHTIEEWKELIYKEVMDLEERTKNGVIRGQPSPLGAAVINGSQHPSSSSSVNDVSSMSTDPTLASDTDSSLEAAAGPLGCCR
UniProt Q12765, sequence (whole entry, looked up): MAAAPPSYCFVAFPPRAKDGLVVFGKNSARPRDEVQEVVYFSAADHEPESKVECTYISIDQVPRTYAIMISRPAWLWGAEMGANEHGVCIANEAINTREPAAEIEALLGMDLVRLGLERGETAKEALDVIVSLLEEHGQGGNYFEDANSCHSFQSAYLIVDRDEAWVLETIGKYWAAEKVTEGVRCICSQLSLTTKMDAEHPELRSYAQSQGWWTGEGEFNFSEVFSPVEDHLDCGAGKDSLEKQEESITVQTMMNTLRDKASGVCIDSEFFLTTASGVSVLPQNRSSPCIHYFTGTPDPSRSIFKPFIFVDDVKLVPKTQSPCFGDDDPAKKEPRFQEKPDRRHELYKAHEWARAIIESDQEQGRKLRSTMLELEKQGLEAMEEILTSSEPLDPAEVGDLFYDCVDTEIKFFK
UniProt P62942, sequence (whole entry, looked up): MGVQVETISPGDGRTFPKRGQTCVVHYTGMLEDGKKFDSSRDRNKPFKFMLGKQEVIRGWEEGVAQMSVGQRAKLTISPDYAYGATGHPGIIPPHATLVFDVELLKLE
UniProt Q9Y4E8, sequence (whole entry, looked up): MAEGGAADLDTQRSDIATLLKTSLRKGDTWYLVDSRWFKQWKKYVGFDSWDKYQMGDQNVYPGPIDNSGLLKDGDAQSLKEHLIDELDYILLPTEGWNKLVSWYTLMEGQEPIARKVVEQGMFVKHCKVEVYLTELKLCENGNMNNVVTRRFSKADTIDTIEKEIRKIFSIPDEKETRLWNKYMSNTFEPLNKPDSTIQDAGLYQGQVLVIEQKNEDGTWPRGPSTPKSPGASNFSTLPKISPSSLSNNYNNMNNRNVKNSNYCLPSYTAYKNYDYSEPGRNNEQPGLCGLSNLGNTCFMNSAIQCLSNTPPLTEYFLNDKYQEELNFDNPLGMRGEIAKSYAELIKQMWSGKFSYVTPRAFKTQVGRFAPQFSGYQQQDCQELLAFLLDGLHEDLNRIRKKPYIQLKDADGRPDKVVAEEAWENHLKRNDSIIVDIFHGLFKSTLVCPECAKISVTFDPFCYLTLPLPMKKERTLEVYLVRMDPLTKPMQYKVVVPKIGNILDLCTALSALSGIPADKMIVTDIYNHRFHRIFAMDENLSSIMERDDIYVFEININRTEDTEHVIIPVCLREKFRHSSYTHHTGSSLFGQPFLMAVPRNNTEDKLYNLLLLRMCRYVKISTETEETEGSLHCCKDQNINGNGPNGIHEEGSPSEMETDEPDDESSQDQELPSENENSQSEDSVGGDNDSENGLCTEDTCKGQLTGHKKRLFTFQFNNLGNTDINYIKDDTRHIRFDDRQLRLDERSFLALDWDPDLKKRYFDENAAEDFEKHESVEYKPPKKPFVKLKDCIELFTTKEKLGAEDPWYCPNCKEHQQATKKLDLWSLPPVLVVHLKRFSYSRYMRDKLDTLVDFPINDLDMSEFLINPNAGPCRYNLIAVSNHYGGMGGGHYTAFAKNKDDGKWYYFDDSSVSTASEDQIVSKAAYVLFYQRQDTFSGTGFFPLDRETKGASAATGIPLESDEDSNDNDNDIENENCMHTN
UniProt Q9BY41, sequence (whole entry, looked up): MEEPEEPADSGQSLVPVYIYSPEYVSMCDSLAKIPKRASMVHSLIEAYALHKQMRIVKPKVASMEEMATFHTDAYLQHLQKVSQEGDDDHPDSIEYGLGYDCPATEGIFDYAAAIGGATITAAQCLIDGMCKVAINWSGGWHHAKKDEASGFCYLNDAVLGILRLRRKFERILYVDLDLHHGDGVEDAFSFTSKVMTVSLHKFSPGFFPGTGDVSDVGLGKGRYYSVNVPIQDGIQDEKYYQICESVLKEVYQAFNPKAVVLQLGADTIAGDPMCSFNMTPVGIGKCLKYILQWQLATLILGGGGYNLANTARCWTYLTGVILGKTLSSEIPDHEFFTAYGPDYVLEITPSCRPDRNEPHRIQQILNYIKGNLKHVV

SMILES	target	assay	system	setting	scale	measurement	value
CC(/C=C/C(=O)NO)=C\[C@@H](C)C(=O)c1ccc(N(C)C)cc1	Histone deacetylase 8 (HDAC8, Homo sapiens, UniProt Q9BY41)	ITC	Hepes buffer	concentration not given, pH 7.5	–	binding stoichiometry	0.85
O=C1c2sc(-c3ccc(N4CCC(F)C4)nc3F)nc2CCN1c1cccnc1 (centres unmarked)	TAR DNA-binding protein 43, aggregated (TARDBP, Homo sapiens, UniProt Q13148)	radioligand binding	control brain sarkosyl-insoluble extract	1.8 nM	–	specific binding	-1 pM
Nc1ncnc2c1ncn2C1OC(CN(CCCC2CNCc3c2ccc(Cl)c3Cl)CCC(N)C(=O)O)C(O)C1O (mixture of isomers)	Phenylethanolamine N-methyltransferase (PNMT, Homo sapiens, UniProt P11086)	ITC	–	first site, SAH bound	–	ΔG-1	-10.2 ± 0.3 kcal/mol
CC(=O)N[C@@H](CCC(C)C)C(=O)N[C@@H](CCC(=O)O)C(=O)N[C@@H](C)C(=O)N[C@@H](CC(=O)O)C(=O)COC(=O)c1c(C)cccc1C	CASP10	enzyme activity, inhibitor	–	–	–	kinact/KI	261000 M⁻¹ s⁻¹
C[n+]1cn([C@@H]2O[C@H](COP(=O)(O)OP(=O)([O-])OP(=O)(O)O)[C@@H](O)[C@H]2O)c2nc(N)nc(O)c21	DCPS	substrate, HPLC	–	concentration not given, 30 min	–	hydrolysis	22.3 ± 1.6%
O=C(CCc1ccc2n1[B-](F)(F)[N+]1=C(c3ccc[nH]3)C=CC1=C2)NCCCn1cc([C@H]2CN(Cc3ccccn3)C(=O)[C@@H]3CCC[C@H]2N3S(=O)(=O)c2cc(Cl)cc(Cl)c2)nn1	Peptidyl-prolyl cis-trans isomerase FKBP1A (FKBP1A, Homo sapiens, UniProt P62942)	tracer binding, NanoBRET tracer titration	HEK293T transiently expressing FKBP1A	–	–	Hill slope	1.3 ± 0.1
CC(=O)N[C@@H](CC(C)C)C(=O)N[C@@H](CCC(N)=O)C(=O)N[C@@H](CCC(=O)O)C(=O)N[C@@H](CC(=O)O)C(=O)COC(=O)c1c(C)cccc1C	CASP10	enzyme activity, inhibitor	–	–	–	kinact/KI	242000 M⁻¹ s⁻¹
CCCCCCCCCCCCC/C=C/C=O	DEP domain-containing mTOR-interacting protein (Homo sapiens, UniProt Q8TB45)	competitive isoTOP-ABPP	Ramos soluble proteome	100 µM, 60 min, with: iodoacetamide probe	reference: DMSO over compound-treated, higher = stronger cysteine blockade	isoTOP-ABPP competition ratio	1
CC[C@H](C)[C@H](NC(=O)[C@H](CCC(N)=O)NC(=O)[C@@H](NC(=O)[C@@H]1CCCN1[C@@H]1CN(C(=O)[C@H](CCCCN)NC(=O)[C@H](CC(N)=O)NC(=O)[C@@H](NC(=O)[C@@H](NC(=O)[C@H](CCC(N)=O)NC(=O)[C@@H](N)C(C)C)[C@@H](C)CC)[C@@H](C)CC)CC[C@H]1NS(=O)(=O)c1ccc(C)cc1)C(C)C)C(=O)N[C@H](C(=O)N[C@@H](Cc1ccc(O)cc1)C(=O)N[C@@H](CCCCN)C(N)=O)C(C)C	MAPT PHF6* peptide	fibril formation, ThT fluorescence	–	5-fold of peptide, 240 min, pH 7.4, with: Ac-PHF6* 25 µM, heparin	reference: untreated	ThT fluorescence	9 ± 1%
CCCCCC(O)/C=C/C=O (centres unmarked)	Exportin-2 (Homo sapiens, UniProt P55060)	competitive isoTOP-ABPP, item: CSE1L cysteine peptide	Ramos soluble proteome	100 µM, with: iodoacetamide probe	reference: DMSO over compound-treated, higher = stronger cysteine blockade	isoTOP-ABPP competition ratio	1.3
Cc1cn(CC(=O)N(CC(=O)N[C@H]2COC[C@@H]2N(CC(=O)NCCOCCOCC(N)=O)C(=O)Cn2cnc3c(N)ncnc32)[C@H]2COC[C@@H]2NC(=O)CN(C(=O)Cn2cnc3c(N)ncnc32)[C@H]2COC[C@@H]2NC(=O)CN(C(=O)Cn2cnc3c(=O)[nH]c(N)nc32)[C@H]2COC[C@@H]2NC(=O)CN(C(=O)Cn2cc(C)c(=O)[nH]c2=O)[C@H]2COC[C@@H]2NC(=O)CN(C(=O)Cn2cnc3c(=O)[nH]c(N)nc32)[C@H]2COC[C@@H]2NC(=O)CN(C(=O)Cn2cc(C)c(=O)[nH]c2=O)[C@H]2COC[C@@H]2NC(=O)CN(C(=O)Cn2cnc3c(N)ncnc32)[C@H]2COC[C@@H]2NC(=O)CN(C(=O)Cn2cnc3c(=O)[nH]c(N)nc32)[C@H]2COC[C@@H]2N)c(=O)[nH]c1=O	complementary DNA	duplex formation, UV melting curve fit	PBS	1 µM, 298 K	–	ΔG	-19.6 ± 0.1 kcal/mol
C[n+]1cn([C@@H]2O[C@H](COP(=O)([O-])OP(=O)(O)CP(=O)(O)OP(=O)(O)OC[C@H]3O[C@@H](n4cnc5c(=O)[nH]c(N)nc54)[C@H](O)[C@@H]3O)[C@@H](O)[C@H]2O)c2nc(N)nc(O)c21	DCPS	substrate, HPLC	–	concentration not given, 15 min	–	hydrolysis	0%
O=C(NC[C@@H](Cc1ccc(F)cc1)N1CCC(O)(C(F)(F)F)CC1)C1(c2ccc(Cl)cc2)CCCC1	Transient receptor potential cation channel subfamily A member 1 (TRPA1, Homo sapiens, UniProt O75762, L881V)	calcium influx, agonist	–	–	reference: L881V mutant over wild type	EC50 fold change	149
C[N+]1(C)CCCC1	Chrnd/Chrna1/Chrne (Mus musculus, UniProt P02716+P04756+P20782, G173K/S470W)	single-channel kinetics	–	K chain side site	–	kon	1.47e+07 M⁻¹ s⁻¹
CC(=O)N[C@@H](CC(=O)O)C(=O)N[C@@H](Cc1ccccc1)C(=O)N[C@H](C(=O)N[C@@H](CC(=O)O)C(=O)COC(=O)c1c(C)cccc1C)C(C)(C)C	CASP10	enzyme activity, inhibitor	–	–	–	kinact/KI	32000 M⁻¹ s⁻¹
O=c1c(-c2ccccc2Cl)coc2cc(O)ccc12	HSD3B1	[3H]-DHEA conversion	LNCaP	0.1 µM, normalized to protein, unit not given	reference: vehicle	DHEA metabolism	0
CC(=O)N[C@H](C(=O)N[C@@H](CCCNC(N)=O)C(=O)N[C@@H](CCO)C(=O)N[C@@H](CC(=O)O)C(=O)COC(=O)c1c(C)cccc1C)C1CCCCC1	CASP10	enzyme activity, inhibitor	–	–	–	kinact/KI	25800 M⁻¹ s⁻¹
N=C(N)NCCS(=O)(=O)O	Sodium- and chloride-dependent taurine transporter (SLC6A6, Homo sapiens, UniProt P31641, Y138A)	binding, microscale thermophoresis	–	31.3 µM, room temperature, with: 50 nM labelled protein	higher = more binding	normalised MST signal	0.0449

SMILES	target	assay	system	setting	scale	measurement	value
CC(C)Oc1cc(Cl)ccc1CNc1cc(-c2ccccc2)nc2ncnn12	G-protein coupled receptor 3 (GPR3, Homo sapiens, UniProt P46089)	cAMP reporter	human cells	3 µM	higher is more cAMP	cAMP luminescence	2280 a.u. and 13000 a.u. and 3540 a.u. and 4850 a.u. and 2010 a.u. and 3340 a.u.
CC(=O)N[C@@H](CC(C)C)C(=O)N[C@@H](Cc1ccccc1)C(=O)N[C@@H](CO)C(=O)N[C@@H](CC(=O)O)C(=O)COC(=O)c1c(C)cccc1C	CASP8	enzyme activity, inhibitor	–	–	–	kinact/KI	82000 M⁻¹ s⁻¹
CCC1CC2C(C)=CC3C(=O)C=CCC3C=CC(C)=CC2C(=O)O1 (centres unmarked)	Microtubule-associated protein tau, K18 fragment, aggregated (MAPT, Homo sapiens, UniProt P10636)	fibril dissociation, thioflavin T fluorescence	–	1000 µM, tau K18 fibrils pre-formed 3 days, then 3 days more	reference: untreated fibrils same duration	fibril reduction	51.1%
C#CCOC(=O)[C@]1(C)C=C(C(=O)OC(C)(C)C)C(=O)CC1	MAPK8	enzyme activity, D-SENSOR	–	4.938 µM, mean of replicates	–	normalized kinase activity	0.967
CC(=O)N[C@@H](CC(=O)O)C(=O)N[C@@H](CC(C)C)C(=O)N[C@@H](C)C(=O)N[C@@H](CC(=O)O)C(=O)COC(=O)c1c(C)cccc1C	CASP10	enzyme activity, inhibitor	–	–	–	kinact/KI	187000 M⁻¹ s⁻¹
O=c1cc(Nc2cccc(O)c2)c2ccccc2o1	Alpha-1A adrenergic receptor (ADRA1A, Homo sapiens, UniProt P35348)	intracellular Ca2+ mobilization, agonist	COS-7	500 µM	reference: 3 µM ionomycin	agonist activity	7.39 ± 4.17%
CCCCCCCC/C=C\CCCCCCCC(=O)NCCO	Transient receptor potential cation channel subfamily V member 1 (Trpv1, Mus musculus, UniProt Q704Y3, T551V)	ion current, agonist, whole-cell patch clamp	–	T551V	–	Hill coefficient	3.06 ± 0.61
COc1ccccc1-c1ccncc1C(=O)Nc1nnc(OCc2ccc(Cl)cc2)s1	DNA polymerase theta, helicase domain (POLQ, Homo sapiens, UniProt O75417)	ATPase activity, ADP-Glo	–	0.015 µM, with: ATP 600 µM	–	remaining activity	64%
COC(=O)[C@@]1(C(C)C)C=C(C(=O)Nc2cccc(C(=O)Nc3ccc(Nc4nccc(-c5cccnc5)n4)c(C)c3)c2)C(=O)CC1	MAPK8	SPR two-step binding model	–	reversible bond formation	–	ΔΔG bond formation contribution	-2.33 kcal/mol
C=CC(=O)N1CCCC(n2c(=O)c3ncccc3n(Cc3ccc(Oc4ccccc4)cc3)c2=O)C1 (centres unmarked)	Secernin-1 (SCRN1, Homo sapiens, UniProt Q12765)	thermal proteome profiling, item: SCRN1	–	treated	–	melting temperature	45 °C and 50.4 °C
CC(C)[C@H](NC(=O)[C@@H](NC(=O)[C@H](Cc1ccccc1)NC(=O)[C@@H](N)CO)[C@@H](C)O)C(=O)N[C@@H](CCCNC(=N)N)C(=O)N[C@@H](C)C(N)=O	MAPT PHF6* peptide	fibril formation, ThT fluorescence	–	1-fold of peptide, pH 7.4, with: Ac-PHF6* 25 µM, heparin	reference: untreated	ThT fluorescence	125 ± 4%
N#CN1CC[C@H](C(=O)Nc2nc3c(s2)CN(C(=O)Cn2cc(CNC(=O)CCCC[C@@H]4SC[C@@H]5NC(=O)N[C@@H]54)nn2)CC3)C1	Ubiquitin carboxyl-terminal hydrolase 15 (USP15, Homo sapiens, UniProt Q9Y4E8)	probe binding, affinity probe, neutravidin pull-down LC-MS/MS	HEK293T, cell lysate	5 µM, 1 h, mean of three replicates, unit not given	higher = more pulled down	iBAQ abundance	3.65e+06
CCN(CC)C(CO)c1cccc2c(C)c(C)oc12 (centres unmarked)	Lysophosphatidic acid receptor 1 (LPAR1, Homo sapiens, UniProt Q92633, W271F)	G-protein dissociation, agonist, NanoBiT	HEK-293T	100 pM, W271F mutant	reference: baseline luminescence	fold change	1 and 0.993 and 1.02 and 0.992 and 0.981
CC(=O)N1C[C@H](O)C[C@H]1C(=O)N[C@@H](CC(C)C)C(=O)N[C@@H](C)C(=O)N[C@@H](CC(=O)O)C(=O)COC(=O)c1c(C)cccc1C	CASP8	inhibitor	–	recombinant enzyme	–	kobs/[I]	2.9e+06 M⁻¹ s⁻¹
Cn1cc(-c2cc(N3CCCCS3(=O)=O)ccc2N[C@H]2CC[C@H](C)CC2)c2cc[nH]c2c1=O (stereo in doubt)	ATPase family AAA domain-containing protein 2B (ATAD2B, Homo sapiens, UniProt Q9ULI0)	binding, competition with immobilised ligand	–	1 µM	–	remaining binding	99%
CC[C@H](NC(=O)[C@@H](NC(=O)[C@H](CC(=O)O)NC(C)=O)[C@@H](C)O)C(=O)N[C@@H](CC(=O)O)C(=O)COC(=O)c1c(C)cccc1C	CASP8	enzyme activity, inhibitor	–	–	–	kinact/KI	141000 M⁻¹ s⁻¹
O=c1c(-c2ccccc2C(F)(F)F)coc2cc(O)ccc12	HSD3B1	[3H]-DHEA conversion	LNCaP	0.1 µM, normalized to protein, unit not given	reference: vehicle	DHEA metabolism	0

For quick reference, copied from above:
SMILES	target	assay	system	setting	scale	measurement	value
CC(=O)N[C@@H](CC(=O)O)C(=O)N[C@@H](Cc1ccccc1)C(=O)N[C@H](C(=O)N[C@@H](CC(=O)O)C(=O)COC(=O)c1c(C)cccc1C)C(C)(C)C	CASP10	enzyme activity, inhibitor	–	–	–	kinact/KI	32000 M⁻¹ s⁻¹
O=c1c(-c2ccccc2Cl)coc2cc(O)ccc12	HSD3B1	[3H]-DHEA conversion	LNCaP	0.1 µM, normalized to protein, unit not given	reference: vehicle	DHEA metabolism	0
